{"data": "Measured values of several laboratories", "note": "Compare with care: the assays were run in different laboratories. Several values in a cell are separate wells, animals, samples, runs or records. ± marks the error that the study gave."}
{"SMILES": "CCCCCCCCCCCCCCCC(=O)N[C@@H](CCC(=O)NCCCC[C@H](NC(=O)[C@H](CC(=O)O)NC(=O)[C@H](CO)NC(=O)[C@@H](NC(=O)[C@H](Cc1ccccc1)NC(=O)[C@@H](NC(=O)CNC(=O)[C@H](CCC(N)=O)NC(=O)[C@H](CO)NC(=O)[C@@H](N)Cc1c[nH]cn1)[C@@H](C)O)[C@@H](C)O)C(=O)N[C@@H](CO)C(=O)N[C@@H](CCC(=O)O)C(=O)N[C@@H](Cc1ccc(O)cc1)C(=O)N[C@@H](CC(C)C)C(=O)N[C@@H](CC(=O)O)C(=O)N[C@@H](CO)C(=O)N[C@@H](CCC(=O)O)C(=O)N[C@@H](CCCNC(=N)N)C(=O)N[C@@H](C)C(=O)N[C@@H](CCCNC(=N)N)C(=O)N[C@@H](CC(=O)O)C(=O)N[C@@H](Cc1ccccc1)C(=O)N[C@H](C(=O)N[C@@H](C)C(=O)N[C@@H](Cc1c[nH]c2ccccc12)C(=O)N[C@@H](CC(C)C)C(=O)N[C@@H](CCC(=O)O)C(=O)N[C@@H](C)C(=O)NCC(=O)NCC(=O)O)C(C)C)C(=O)O", "test": "item: Flatulence", "test system": "humans CrCl 20 to 30 mL/min", "setting": "subcutaneous, 100 µg single dose", "quantity": "treatment-related adverse events", "result": "0%"}
{"SMILES": "CCc1ccc(CC/C=C/c2ccc3c(c2)C(=O)CC3)cc1", "test system": "Sprague-Dawley rat, female", "setting": "oral, 120 mg/kg/day, 14 days", "quantity": "CK serum activity", "result": "374 U/L"}
{"SMILES": "Cn1cc(-c2nc(N[C@@H]3CCCC[C@@H]3N)c(F)c3c2C(=O)NC3)cn1", "test": "item: Hemoptysis", "test system": "patients with relapsed or refractory AML", "setting": "oral, dose not given, all doses", "quantity": "hemorrhagic adverse events", "result": "7%"}
{"SMILES": "CO[C@H]1C[C@@H]2CC[C@@H](C)[C@@](O)(O2)C(=O)C(=O)N2CCCC[C@H]2C(=O)O[C@H]([C@H](C)C[C@@H]2CC[C@@H](OC(=O)NCCOCCOCCOCCOCCOCCOCCOCCOCCC(=O)N3CCc4cc(Cn5nc(-c6ccc7oc(N)nc7c6)c6c(N)ncnc65)ccc4C3)[C@H](OC)C2)C[C@@H](O)[C@H](C)/C=C(\\C)[C@@H](O)[C@@H](OC)C(=O)[C@H](C)C[C@H](C)/C=C/C=C/C=C/1C", "test": "phase 1 dose escalation, item: rash", "test system": "advanced solid tumour patients", "setting": "intravenous, 16 mg weekly, any grade", "quantity": "TRAE incidence", "result": "25%"}
{"SMILES": "CC(C)CC(=O)OC[C@H]1O[C@@](C#N)(c2ccc3c(N)ncnn23)[C@H](O)[C@@H]1O", "test": "plasma protein binding", "test system": "rat plasma", "setting": "0.9 µM, time not given", "quantity": "recovery", "result": "87%"}
{"SMILES": "CC(=O)c1c(C)c2cnc(Nc3ccc(C4CCN(CCS(C)(=O)=O)CC4)cn3)nc2n(C2CCCC2)c1=O", "test system": "human, plasma", "setting": "oral, 75 mg twice daily, day 1, single dose, together with: letrozole", "quantity": "MRT", "result": "5.01 h"}
{"SMILES": "CC(C)(O)c1cc(Nc2cc(Oc3cn(C4CC4)nc3C3CCOCC3)ccn2)ccn1", "test": "Thrombocytopenia", "test system": "advanced cancer patients, grade 4 glioma expansion", "setting": "oral, 50 mg twice daily, all causality any grade", "quantity": "treatment-emergent adverse events", "result": "5%"}
{"SMILES": "CN1CCC(CNc2ccc3ncc(-c4cccc(OC(F)(F)F)c4)n3n2)CC1", "test": "systemic toxicity signature, BioMAP Diversity PLUS", "test system": "primary human cell cocultures", "quantity": "lowest toxic concentration", "result": "≥ 10 µM"}
{"SMILES": "O=C(Nc1ccccc1)C1CCN(C(=O)Oc2cccnc2)CC1", "test system": "healthy women", "setting": "oral, 100 mg, 9 days", "quantity": "adverse event Pruritus", "result": "0%"}
{"SMILES": "Clc1nc[n]([Au][PH](c2ccccc2)(c2ccccc2)c2ccccc2)c1Cl", "test system": "NCG mice", "setting": "intraperitoneal, 5 mg/kg single dose, 24 h", "quantity": "body weight", "result": "22.2 g and 23.1 g"}
{"SMILES": "C[C@]1(O)C[C@@](N)(c2ccc(-c3nc4n(c3-c3ccccc3)COc3ccncc3-4)cc2)C1", "test system": "human, advanced or metastatic solid tumours", "setting": "dose not given, all patients", "quantity": "patients with grade ≥3 Fatigue TEAE", "result": "5.9%"}
{"SMILES": "C[C@@H](NC(=O)N1C(=O)[C@H](Cc2ccnc(N)c2)[C@H]1C(=O)O)C1CCCCC1", "test system": "healthy Chinese adult volunteers", "setting": "continuous intravenous infusion, dose not given, 5.0 days, CTCAE 5.0, all doses", "quantity": "elevated neutrophil", "result": "2.5%"}
{"SMILES": "COc1cc(C2C3=C(COC3=O)N(CCO)c3cc4c(cc32)CCC4)cc(OC)c1OC (stereo not shown)", "test system": "female C57BL/6 mice", "setting": "intraperitoneal, 400 mg/kg, 72 h, single dose, mean", "quantity": "body weight", "result": "21.3 g"}
{"SMILES": "Clc1ccc(-c2ccccc2)cc1", "test system": "female Sprague-Dawley rats, serum", "setting": "inhalation, 23 µg/rat, 4 h after exposure", "quantity": "sodium", "result": "127 ± 12 mmol/L"}
{"SMILES": "C=CCNc1c(O)cc2c(O)c1C[C@@H](C)C[C@H](OC)[C@H](O)[C@@H](C)/C=C(\\C)[C@H](OC(N)=O)[C@@H](OC)/C=C\\C=C(/C)C(=O)N2", "test": "item: Constipation", "test system": "unresectable or metastatic GIST/STS", "setting": "intravenous, dose not given, all doses", "quantity": "patients with TEAE", "result": "24%"}
{"SMILES": "Cn1cncc1-c1c(F)cncc1NC(=O)c1c(N)nn2cc(F)cnc12", "test system": "human patients", "setting": "oral, 270 mg once daily", "quantity": "grade ≥3 creatinine increase incidence", "result": "0%"}
{"SMILES": "CC(C)[C@@H]1NC(=O)CNC(=O)[C@H](CC(N)=O)NC(=O)[C@H](CCCNC(=N)N)NC(=O)[C@H](Cc2ccc(O)cc2)NC(=O)[C@H](C(C)C)NC(=O)[C@@H](NC(=O)[C@@H](NC(=O)[C@H](CC(N)=O)NC(=O)[C@H](Cc2c[nH]c3ccccc23)NC(=O)[C@H](C)NC(=O)[C@H](Cc2ccccc2)NC(=O)CN)C(C)C)CSSC[C@@H](C(=O)N[C@@H](Cc2cnc[nH]2)C(=O)N[C@@H](CCCNC(=N)N)C(=O)N[C@@H](CCCNC(=N)N)C(=O)N[C@@H](C)C(=O)N[C@@H](CC(N)=O)C(N)=O)NC(=O)[C@H](C(C)C)NC(=O)[C@H](CCCNC(=N)N)NC1=O", "test": "HPLC", "test system": "mouse kidney homogenate 50 mg/mL", "setting": "8.00 h, 37 °C", "quantity": "peptide remaining", "result": "9.26% and 7.83% and 12.3%"}
{"SMILES": "C[C@H]1CN(C(=O)CC#N)[C@]12CCN(c1ncnc3[nH]ccc13)C2", "test system": "minipig, male", "setting": "dermal, 12 mg/kg repeated, 1 months", "quantity": "Cmax at NOAEL", "result": "1.2 ng/mL"}
{"SMILES": "Cc1cccc(N=Nc2ccc3[nH]cc(CCN(C)C)c3c2)c1", "test": "light irradiation", "test system": "solution", "setting": "together with: light 530 nm", "quantity": "trans isomer at photostationary state", "result": "85%"}
{"SMILES": "N[C@@H]1c2ccccc2OC12CCN(c1cnc3c(N4CCCc5ncccc54)n[nH]c3n1)CC2", "test system": "patients advanced metastatic solid tumours", "setting": "oral, 60 mg once daily, pooled cohort", "quantity": "peripheral oedema TRAE incidence", "result": "36%"}
{"SMILES": "C[C@]1(CO)Cc2ncn(-c3ccc(C#N)c(Cl)c3)c2C(=O)O1", "test system": "healthy Japanese adults, plasma", "setting": "80 mg once daily, multiple dose", "quantity": "Tmax at steady state", "result": "0.5 h"}
{"SMILES": "Oc1c(Cl)cc2c(c1Cl)Oc1cc(Cl)c(Cl)cc1O2", "test": "ultrafiltration", "test system": "cow milk whey", "setting": "20 nM nominal in whole milk", "quantity": "final permeate concentration", "result": "1.85 nM"}
{"SMILES": "CC(C)=CC1C(C(=O)OC(C#N)c2cccc(Oc3ccccc3)c2)C1(C)C (stereo not shown)", "test": "IVIVE scaling", "test system": "human adult", "quantity": "hepatic intrinsic clearance", "result": "9710 L/h/kg liver"}
{"SMILES": "CC[C@H](C)[C@H](NC(=O)[C@H](Cc1ccccc1)NC(=O)[C@H](CCC(=O)O)NC(=O)[C@H](CCCNC(=N)N)NC(=O)[C@H](C)NC(=O)[C@H](C)NC(=O)[C@H](CCC(N)=O)NC(=O)[C@H](CCC(=O)O)NC(=O)[C@H](CCC(=O)O)NC(=O)[C@H](CC(C)C)NC(=O)[C@H](Cc1ccc(O)cc1)NC(=O)[C@H](CO)NC(=O)[C@H](CO)NC(=O)[C@@H](NC(=O)[C@H](CC(=O)O)NC(=O)[C@H](CO)NC(=O)[C@@H](NC(=O)[C@H](Cc1ccccc1)NC(=O)[C@@H](NC(=O)CNC(=O)[C@H](CCC(=O)O)NC(=O)[C@H](C)NC(=O)CCc1cnc[nH]1)[C@@H](C)O)[C@@H](C)O)C(C)C)C(=O)N[C@@H](C)C(=O)N[C@@H](Cc1c[nH]c2ccccc12)C(=O)N[C@@H](CC(C)C)C(=O)N[C@H](C(=O)N[C@@H](CCCNC(=N)N)C(=O)NCC(=O)N[C@@H](CCCNC(=N)N)C(=O)N[C@@H](CCCCNC(=O)COCCOCCNC(=O)COCCOCCNC(=O)CC[C@H](NC(=O)CCCCCCCCCCCCCCCCC(=O)O)C(=O)O)C(=O)NCC(=O)NCC(=O)N[C@@H](CO)C(=O)N[C@@H](CCCCNC(=O)[C@H](CCCCNc1c(NCCCCCN(O)C(=O)CCC(=O)NCCCCCN(O)C(=O)CCC(=O)NCCCCCN(O)C(C)=O)c(=O)c1=O)Nc1c(NCCCCCN(O)C(=O)CCC(=O)NCCCCCN(O)C(=O)CCC(=O)NCCCCCN(O)C(C)=O)c(=O)c1=O)C(=O)O)C(C)C [zirconium-89 labelled]", "test": "ex vivo gamma counting", "test system": "male Sprague-Dawley rats, heart", "setting": "intravenous, 1 nmol, 24 h", "quantity": "tissue uptake", "result": "0.231 %ID/g"}
{"SMILES": "O=c1ccc2ncc(=O)n3c2n1C[C@H]3CN1CCC(NCc2cc3c(cn2)OCCC3)CC1", "test system": "healthy human volunteers, plasma", "setting": "oral, 1500 mg, alone, arithmetic mean", "quantity": "AUC(0-t)", "result": "19600 ng·h/mL"}
{"SMILES": "COc1ncccc1-c1cnn2ccc(N3CCN(C(=O)OC(C)C)CC3)nc12", "test system": "mouse nerve ligation model, brain", "setting": "oral, 10 mg/kg, 120 min after last dose, repeat dosing day 5", "quantity": "drug concentration", "result": "5.8 µM"}
{"SMILES": "N#C/N=C1\\SCCN1Cc1ccc(Cl)nc1", "test system": "soil", "setting": "0 days, nominal 1.1", "quantity": "recovery", "result": "54%"}
{"SMILES": "CCN1[C@@H](C(=O)NC23CCC(C(=O)O)(CC2)CC3)[C@H](c2cccc(Cl)c2F)[C@]2(C(=O)Nc3cc(Cl)ccc32)C12CCCCC2", "test system": "patients with advanced solid tumours", "setting": "oral, dose not given, all doses", "quantity": "any-grade anemia incidence", "result": "52.4%"}
{"SMILES": "CCCC(CCC)NC(=O)c1ccc2c(c1)OCO2", "test system": "Swiss albino CD-1 mice, male, bone marrow", "setting": "intraperitoneal, 175 mg/kg, 48 h", "quantity": "micronucleated PCEs", "result": "0.1%"}
{"SMILES": "CCCSc1ccc2nc(NC(=O)OC)[nH]c2c1", "test system": "mouse, blood", "setting": "oral, 50 mg/kg, tolerability, mean", "quantity": "basophils", "result": "0.42%"}
{"SMILES": "O=S(=O)(Nc1ccccc1)c1ccc(NC(=S)Nc2ccccc2)cc1", "test": "item: LY%", "test system": "male mouse, blood", "setting": "oral, 20 mg/kg daily, 14 days", "quantity": "blood cell fraction", "result": "79.4%"}
{"SMILES": "Cc1cccc(Cn2nc(C3CC3)c3c(NC(=O)c4cnc5cc(OCCN6CCN(C)CC6)ccn45)cccc32)n1", "test": "CTCAE v4.03, item: abdominal pain", "test system": "pancreatic ductal adenocarcinoma patients", "setting": "oral, dose not given, together with: pembrolizumab IV every 3 weeks", "quantity": "all-cause adverse events", "result": "25.9%"}
{"SMILES": "CC(C)C[C@H](NC(=O)[C@H](CCCCN)NC(=O)OCC1c2ccccc2-c2ccccc21)C(=O)N[C@H](C(=O)N[C@@H](Cc1ccccc1)C(=O)N[C@@H](Cc1ccccc1)C(=O)N[C@@H](CCCCN)C(=O)NCC(=O)N[C@@H](Cc1ccccc1)C(=O)N[C@@H](C)C(=O)N[C@@H](Cc1c[nH]c2ccccc12)C(=O)N[C@@H](CC(N)=O)C(=O)N[C@H](C(=O)N[C@H]1CSSC[C@@H](C(=O)N[C@@H](Cc2c[nH]cn2)C(=O)N[C@@H](CCCNC(=N)N)C(=O)N[C@@H](CCCNC(=N)N)C(=O)N[C@@H](C)C(=O)N[C@@H](CC(N)=O)C(N)=O)NC(=O)[C@H](C(C)C)NC(=O)[C@H](CCCNC(=N)N)NC(=O)[C@H](C(C)C)NC(=O)CNC(=O)[C@H](CC(N)=O)NC(=O)[C@H](CCCNC(=N)N)NC(=O)[C@H](Cc2ccc(O)cc2)NC(=O)[C@H](C(C)C)NC1=O)C(C)C)C(C)C", "test system": "ICR mice, serum", "setting": "intraperitoneal, 10 mg/kg, day 5", "how to read": "relative to: AST over ALT", "quantity": "AST/ALT ratio", "result": "0.6 ± 0.03"}
{"SMILES": "COc1cc2c(Oc3ccc4[nH]c(C)cc4c3F)ccnc2cc1OCC1(N)CC1", "test system": "paediatric recurrent refractory sarcoma", "setting": "12 mg", "quantity": "grade 3 blurred vision", "result": "0%"}
